Published values of several laboratories.
Each line is one published result; not all experiments were run side by side. ± marks the error that the study gave.
Chain of UniProt Q96SB4 (whole entry, looked up): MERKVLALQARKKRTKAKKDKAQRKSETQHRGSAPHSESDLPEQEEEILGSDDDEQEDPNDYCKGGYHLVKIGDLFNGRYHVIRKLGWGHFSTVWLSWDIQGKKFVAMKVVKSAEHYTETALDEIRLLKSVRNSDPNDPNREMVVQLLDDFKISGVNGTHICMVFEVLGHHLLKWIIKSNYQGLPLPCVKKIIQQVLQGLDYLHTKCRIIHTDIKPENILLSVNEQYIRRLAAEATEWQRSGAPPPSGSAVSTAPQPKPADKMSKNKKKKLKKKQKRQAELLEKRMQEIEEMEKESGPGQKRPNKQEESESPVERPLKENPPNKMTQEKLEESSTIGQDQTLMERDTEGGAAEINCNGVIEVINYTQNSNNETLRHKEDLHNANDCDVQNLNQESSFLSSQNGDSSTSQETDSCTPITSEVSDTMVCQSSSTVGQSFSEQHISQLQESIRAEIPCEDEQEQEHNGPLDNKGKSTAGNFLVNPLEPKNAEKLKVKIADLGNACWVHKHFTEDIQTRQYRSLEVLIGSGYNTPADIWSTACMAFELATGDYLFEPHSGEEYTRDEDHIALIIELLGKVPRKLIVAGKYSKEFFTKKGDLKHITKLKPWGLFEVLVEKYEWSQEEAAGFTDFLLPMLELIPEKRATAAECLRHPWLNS
Chain of UniProt P09619 (whole entry, looked up): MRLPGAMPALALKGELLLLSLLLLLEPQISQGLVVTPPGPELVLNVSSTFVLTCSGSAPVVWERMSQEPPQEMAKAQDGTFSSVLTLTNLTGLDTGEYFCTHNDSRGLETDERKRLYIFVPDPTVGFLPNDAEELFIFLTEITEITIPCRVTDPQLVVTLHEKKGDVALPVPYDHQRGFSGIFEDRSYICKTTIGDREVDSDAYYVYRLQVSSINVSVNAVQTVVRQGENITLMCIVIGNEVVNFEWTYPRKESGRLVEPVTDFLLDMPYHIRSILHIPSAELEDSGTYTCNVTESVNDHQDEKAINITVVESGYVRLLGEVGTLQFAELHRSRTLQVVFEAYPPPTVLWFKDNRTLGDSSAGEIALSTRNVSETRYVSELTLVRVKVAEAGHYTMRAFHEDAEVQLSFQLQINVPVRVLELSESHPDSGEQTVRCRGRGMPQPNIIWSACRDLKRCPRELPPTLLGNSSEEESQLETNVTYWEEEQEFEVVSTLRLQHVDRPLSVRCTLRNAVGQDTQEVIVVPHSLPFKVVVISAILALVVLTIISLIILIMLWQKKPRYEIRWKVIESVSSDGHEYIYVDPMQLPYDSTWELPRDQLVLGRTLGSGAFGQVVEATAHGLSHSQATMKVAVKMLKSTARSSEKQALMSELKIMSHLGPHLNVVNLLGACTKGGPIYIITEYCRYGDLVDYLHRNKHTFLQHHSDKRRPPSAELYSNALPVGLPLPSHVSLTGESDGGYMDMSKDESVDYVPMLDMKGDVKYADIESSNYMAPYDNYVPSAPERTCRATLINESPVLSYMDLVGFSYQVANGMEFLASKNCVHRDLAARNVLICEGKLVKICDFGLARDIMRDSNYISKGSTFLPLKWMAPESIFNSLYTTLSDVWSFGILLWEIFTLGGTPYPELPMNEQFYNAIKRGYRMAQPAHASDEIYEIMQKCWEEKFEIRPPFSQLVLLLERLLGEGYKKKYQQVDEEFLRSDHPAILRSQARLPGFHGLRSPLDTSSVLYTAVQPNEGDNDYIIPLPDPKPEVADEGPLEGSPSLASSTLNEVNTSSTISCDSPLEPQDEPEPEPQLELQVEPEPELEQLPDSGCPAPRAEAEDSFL
Chain of UniProt P21709 (whole entry, looked up): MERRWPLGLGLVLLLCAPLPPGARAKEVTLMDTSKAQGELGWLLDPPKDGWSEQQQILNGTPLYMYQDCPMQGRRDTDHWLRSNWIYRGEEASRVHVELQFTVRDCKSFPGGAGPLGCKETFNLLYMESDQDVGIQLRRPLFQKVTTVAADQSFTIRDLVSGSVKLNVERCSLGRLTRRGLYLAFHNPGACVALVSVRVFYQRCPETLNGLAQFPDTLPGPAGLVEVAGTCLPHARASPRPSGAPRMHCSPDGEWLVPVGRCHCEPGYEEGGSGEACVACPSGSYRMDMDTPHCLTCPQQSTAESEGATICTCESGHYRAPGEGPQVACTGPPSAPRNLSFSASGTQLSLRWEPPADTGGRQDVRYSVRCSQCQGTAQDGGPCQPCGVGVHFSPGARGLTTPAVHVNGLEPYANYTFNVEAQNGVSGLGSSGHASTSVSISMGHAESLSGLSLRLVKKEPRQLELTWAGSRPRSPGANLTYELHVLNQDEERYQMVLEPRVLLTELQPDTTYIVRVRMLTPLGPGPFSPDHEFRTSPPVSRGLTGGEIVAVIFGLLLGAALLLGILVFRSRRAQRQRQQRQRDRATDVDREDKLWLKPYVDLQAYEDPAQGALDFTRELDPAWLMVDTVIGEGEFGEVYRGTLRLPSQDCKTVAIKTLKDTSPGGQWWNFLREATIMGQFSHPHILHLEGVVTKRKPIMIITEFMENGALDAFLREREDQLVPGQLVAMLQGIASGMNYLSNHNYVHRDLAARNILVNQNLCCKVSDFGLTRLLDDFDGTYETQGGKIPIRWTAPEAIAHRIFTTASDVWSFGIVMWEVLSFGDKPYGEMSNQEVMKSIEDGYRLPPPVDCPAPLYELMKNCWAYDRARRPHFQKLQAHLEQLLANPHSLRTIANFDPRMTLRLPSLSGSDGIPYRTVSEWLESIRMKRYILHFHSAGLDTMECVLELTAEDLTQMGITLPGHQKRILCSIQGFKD
Chain of UniProt Q86UE8 (whole entry, looked up): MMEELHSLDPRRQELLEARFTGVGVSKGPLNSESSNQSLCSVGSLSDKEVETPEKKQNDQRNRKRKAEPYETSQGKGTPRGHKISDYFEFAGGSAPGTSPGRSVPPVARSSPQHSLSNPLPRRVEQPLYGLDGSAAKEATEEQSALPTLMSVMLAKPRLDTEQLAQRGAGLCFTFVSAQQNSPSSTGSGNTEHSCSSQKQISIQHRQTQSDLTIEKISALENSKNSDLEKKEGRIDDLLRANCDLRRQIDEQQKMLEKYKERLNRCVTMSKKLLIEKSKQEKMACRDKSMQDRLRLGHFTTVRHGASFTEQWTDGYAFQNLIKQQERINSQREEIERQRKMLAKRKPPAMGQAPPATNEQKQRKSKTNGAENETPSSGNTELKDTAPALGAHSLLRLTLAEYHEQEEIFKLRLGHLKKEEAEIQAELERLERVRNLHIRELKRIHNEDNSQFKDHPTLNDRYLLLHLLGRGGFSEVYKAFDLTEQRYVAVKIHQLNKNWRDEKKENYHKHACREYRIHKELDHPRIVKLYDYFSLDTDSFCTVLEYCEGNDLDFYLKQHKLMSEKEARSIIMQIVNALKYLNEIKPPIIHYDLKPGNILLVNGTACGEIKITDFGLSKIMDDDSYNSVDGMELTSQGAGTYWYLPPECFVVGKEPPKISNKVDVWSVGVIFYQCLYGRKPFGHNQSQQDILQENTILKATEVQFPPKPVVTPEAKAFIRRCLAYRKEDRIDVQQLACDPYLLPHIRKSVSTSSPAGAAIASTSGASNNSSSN
Chain of UniProt O95835 (whole entry, looked up): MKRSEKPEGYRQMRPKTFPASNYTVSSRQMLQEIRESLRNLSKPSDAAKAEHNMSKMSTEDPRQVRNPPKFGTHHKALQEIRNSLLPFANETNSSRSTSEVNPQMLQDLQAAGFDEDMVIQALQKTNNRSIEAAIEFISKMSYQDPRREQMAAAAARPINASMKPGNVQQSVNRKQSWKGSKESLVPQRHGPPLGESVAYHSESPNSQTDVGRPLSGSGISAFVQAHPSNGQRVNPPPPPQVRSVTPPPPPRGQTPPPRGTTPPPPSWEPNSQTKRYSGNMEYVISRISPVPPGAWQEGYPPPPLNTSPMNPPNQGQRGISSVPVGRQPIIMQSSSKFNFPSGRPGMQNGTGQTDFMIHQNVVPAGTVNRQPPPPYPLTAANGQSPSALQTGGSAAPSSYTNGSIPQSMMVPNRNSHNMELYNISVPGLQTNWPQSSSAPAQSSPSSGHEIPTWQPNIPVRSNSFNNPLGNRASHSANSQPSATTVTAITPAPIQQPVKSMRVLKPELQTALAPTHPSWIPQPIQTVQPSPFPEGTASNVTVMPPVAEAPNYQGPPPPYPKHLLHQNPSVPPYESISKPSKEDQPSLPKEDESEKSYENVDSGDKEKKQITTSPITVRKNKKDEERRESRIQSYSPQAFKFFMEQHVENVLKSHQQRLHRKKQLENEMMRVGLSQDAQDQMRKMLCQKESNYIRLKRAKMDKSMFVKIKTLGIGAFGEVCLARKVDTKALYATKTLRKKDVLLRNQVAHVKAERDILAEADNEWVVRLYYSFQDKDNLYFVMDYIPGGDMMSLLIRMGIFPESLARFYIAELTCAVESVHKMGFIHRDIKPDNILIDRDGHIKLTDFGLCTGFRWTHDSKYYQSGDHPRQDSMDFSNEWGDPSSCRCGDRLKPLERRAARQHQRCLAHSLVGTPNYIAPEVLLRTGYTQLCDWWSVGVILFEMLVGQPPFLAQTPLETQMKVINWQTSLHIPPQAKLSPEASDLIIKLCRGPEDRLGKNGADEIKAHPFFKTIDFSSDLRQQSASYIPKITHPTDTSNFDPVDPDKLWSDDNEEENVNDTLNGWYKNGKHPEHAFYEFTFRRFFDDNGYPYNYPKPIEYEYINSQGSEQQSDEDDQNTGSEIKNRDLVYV
Chain of UniProt P61823 (whole entry, looked up): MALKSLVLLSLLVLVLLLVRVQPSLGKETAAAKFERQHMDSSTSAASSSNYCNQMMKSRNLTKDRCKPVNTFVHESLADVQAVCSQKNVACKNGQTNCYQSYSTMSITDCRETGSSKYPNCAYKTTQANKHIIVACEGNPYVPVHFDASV

| SMILES | target or system | test | system | setting | how to read | quantity | result |
| --- | --- | --- | --- | --- | --- | --- | --- |
| Cc1cc(Nc2cc(N3CCN(C)CC3)nc(Sc3ccc(NC(=O)C4CC4)cc3)n2)[nH]n1 | Serine/threonine-protein kinase tousled-like 2 (TLK2, Homo sapiens, UniProt Q86UE8) | kinase activity, KinaseProfiler |  | 0.03 µM, species human | relative to: control | remaining activity | 98% |
| NC/C(=C\F)COc1cccc(Cn2c(=S)[nH]c(=O)c3[nH]cnc32)c1 | Peroxidasin homolog (PXDN, Homo sapiens, UniProt Q92626) | Amplex UltraRed |  | 30 µM | relative to: control | remaining activity | 17.4% |
| C=CC(=O)N1CCC[C@@H](n2nc(-c3ccc(Oc4ccccc4)cc3)c3c(N)ncnc32)C1 | Platelet-derived growth factor receptor beta (PDGFRB, Homo sapiens, UniProt P09619) |  |  | 1 µM |  | remaining activity | 109% |
| Nc1ccn([C@@H]2O[C@H](COP(=O)(O)OP(=O)(O)O)[C@@H](O)[C@H]2O)c(=O)n1 | Ribonuclease pancreatic (RNASE1, Bos taurus, UniProt P61823) | surface sampling native MS |  | charge state 6+ |  | Kd | 4.1 ± 0.5 µM |
| O=C1CCCN1c1ccc(Cl)c(NS(=O)(=O)c2cccc(Cl)c2O)c1 | malate dehydrogenase | enzyme activity, inhibitor |  | 200 µM, pH 7.0, 1% DMSO, aggregation counter-screen |  | remaining activity | 92% |
| CC(C)C[C@H](NC(=O)C[C@H](O)[C@H](CC(C)C)NC(=O)[C@H](Cc1c[nH]cn1)NC(=O)CNC(=O)[C@@H](NC(=O)[C@H](C)NC(=O)[C@H](Cc1c[nH]c2ccccc12)NC(=O)[C@H](CCC(N)=O)NC(=O)[C@@H](Cc1ccccc1)NC(=O)COCCOCCNC(=O)CCC(C(=O)O)N1CCN(CC(=O)O)CCN(CC(=O)O)CCN(CC(=O)O)CC1)C(C)C)C(N)=O (stereo partly drawn) [lutetium-177 labelled] |  |  | BALB/c nu/nu mice, female, pancreas | intravenous, 100 pmol, 30 min, time course 0.5 h, added: PA 300 µg |  | tissue uptake | 19 ± 2 %ID/g |
| O=S(=O)(NCc1cnc(-n2cccn2)s1)c1cccc(Cl)c1O | malate dehydrogenase | enzyme activity, inhibitor |  | 200 µM, pH 7.0, 1% DMSO, aggregation counter-screen |  | remaining activity | 120% |
| CC(=O)OC[C@H]1O[C@@H]([S-])[C@H](OC(C)=O)[C@@H](OC(C)=O)[C@@H]1OC(C)=O.CCP(CC)CC.[Au+] | Toxoplasma gondii | parasite growth, luciferase reporter | HFF host cells, tachyzoites | 72 h |  | EC50 | 2.75 µM |
| O=C(O)c1ccc(Nc2ncc3c(n2)-c2ccc(Cl)cc2C(c2c(F)cccc2F)=NC3)cc1 | human SIK(h) | kinase activity |  | 1 µM |  | remaining activity | 66% |
| O=C(NC1CCC1)c1ccc2nc(-c3cccc(NS(=O)(=O)NCCN4CCCCC4)c3)cn2c1 | Serine/threonine-protein kinase LATS1 (LATS1, Homo sapiens, UniProt O95835) | enzyme activity |  | 10 µM |  | remaining activity | 100% |
| O=S(=O)(NCC(F)(F)c1ccc(Cl)c(Cl)c1)c1cccc(Cl)c1O | malate dehydrogenase | enzyme activity, inhibitor |  | 200 µM, pH 7.0, 1% DMSO, aggregation counter-screen |  | remaining activity | 103% |
| COc1cc(F)ccc1-c1ncnc(Nc2cccc(C[S@](C)(=N)=O)c2)n1 | SRSF protein kinase 1 (SRPK1, Homo sapiens, UniProt Q96SB4) | kinase activity |  | 10 µM, added: 10 µM ATP |  | remaining activity | 119% |
| COc1cc(Nc2ncc3c(n2)-c2ccc(Cl)cc2C(c2c(F)cccc2OC)=NC3)ccc1C(=O)O | PRKD2 | kinase activity |  | 1 µM |  | remaining activity | 99% |
| COc1cc(-c2cncc3c2CN(C)Cc2cc(N4CCNCC4)ccc2-3)cc(OC)c1OC | Ephrin type-A receptor 1 (EPHA1, Homo sapiens, UniProt P21709) | kinase activity |  | 1 µM, human enzyme, added: ATP 10 µM | relative to: DMSO control | remaining activity | 90% |
| O[C@@H](COc1ccc2cc(Br)ccc2c1)Cn1ccnc1 | Trypanosoma cruzi | reporter translation, Renilla luciferase mRNA translation | cell-free extract | 40 µM | relative to: DMSO | inhibition | 0.37% |
| O=C1NCCc2ccc(CNS(=O)(=O)c3cc(Cl)cc(Cl)c3O)cc21 | malate dehydrogenase | enzyme activity, inhibitor |  | 200 µM, pH 7.0, 1% DMSO, aggregation counter-screen |  | remaining activity | 81% |
| Cc1ccc2c(c1)sc(-c1ccc(N(C)C)cc1)[n+]2C | Trypanosoma cruzi | reporter translation, Renilla luciferase mRNA translation | cell-free extract | 40 µM | relative to: DMSO | inhibition | 14.1% |
| Cn1cc(-c2ccc(-c3cncc(Cl)c3N3CCC4(CCNC4=O)CC3)cc2)cn1 | COLO 205 | gene expression, microarray, measured: TGFB3 mRNA |  | concentration not given, 2 h | relative to: untreated cells | log2 fold change | 1.38 |

A few entries again:
| SMILES | target or system | test | system | setting | how to read | quantity | result |
| --- | --- | --- | --- | --- | --- | --- | --- |
| O=S(=O)(NCC(F)(F)c1ccc(Cl)c(Cl)c1)c1cccc(Cl)c1O | malate dehydrogenase | enzyme activity, inhibitor |  | 200 µM, pH 7.0, 1% DMSO, aggregation counter-screen |  | remaining activity | 103% |
